Assay results of several laboratories.
Parts stem from different laboratories: compare values within a part only.

Block 1 — method: protein binding microarray; form: double-stranded DNA, one strand shown; medium: in vitro; tested at: not given; reference: not given; reading: higher = stronger binding
Target: Histone acetyltransferase KAT6A, winged helix 2, GST fusion (KAT6A, Homo sapiens, UniProt Q92794, residues 85-181)
Notes: 8-mer, flanks averaged, mean of 2 arrays, mostly near background
Residues (chain): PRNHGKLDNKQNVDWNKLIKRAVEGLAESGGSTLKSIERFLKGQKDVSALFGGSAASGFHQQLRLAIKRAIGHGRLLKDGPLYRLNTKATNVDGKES
Strand | E-score
CATTGGGC | -0.0614
TACCCCGA | 0.0459
CAAGTAGG | -0.0863
AGTTGGCG | 0.0578
TAGGAAAA | -0.006
GAACGCCA | 0.0598
ATTGGTAG | 0.00549
AGGATGAT | -0.00795
CGATGGTC | -0.0811
TCTTCACA | 0.0652
CGGCTGGA | 0.156
CGTTCGAA | 0.0788
GCTCTCAA | 0.248
CCGCCCTC | 0.195
GGCATCAA | 0.0584
GTGTAGAA | -0.0869
AAGATCAT | -0.00225
AGTGCTAG | -0.11
CCACTCTA | -0.0671
AAATGTGA | -0.0814
GACTCTGC | -0.0694
CATGCGGG | -0.0645
TCCACCGA | -0.0149
AGTAATTC | -0.139

Block 2 — method: protein-binding microarray; form: double-stranded DNA, one strand shown; medium: in vitro; tested at: 940 nM top; notes: 60-bp whole probe; with: salmon DNA 0.4 mg/ml; reference: random background probes; reading: higher = stronger binding; constant ends, left off below: GCCTAGCAC … GTCTTGATTCGCTTGACGCTGCTG
Target: Interferon regulatory factor 5, full length, phosphomimetic (IRF5, Homo sapiens, UniProt Q13568-2, residues 1-514, S451D/S453D/S456D/S462D)
Strand | fitted relative affinity [z-score]
TGAGATCTCAGTTTCGATTAGTGCTAG | 8.87
GACGGTCTCGGTATCGAGACGTGCTAG | 5.66
GCCGGACTGGGGACTGGGGACGTGCTA | -0.207
TCAACCATCTAGTTCTGACTGTGCTAG | -0.158
TTCGGACTGGGACTGGGTTAGTGCTAG | -0.234
CCAGGGCTCTAGAGAAATAGGTGCTAG | -0.508
TTAGAACTCAGTATCGATTAGTGCTAG | 4.53
TCTGTTTTTGCTTTCCTTCAGTGCTAG | 2.02
CTAGGTTTCCTACTGCTTTAGTGCTAG | 0.374
TCATGCTTCTGTATTCAACTGTGCTAG | 0.404
TTTGGTCTCCTTATCCTTTAGTGCTAG | 1.18
TTAGAACTGGGTTTTCGATTAGTGCTA | 0.91
TTAGGTCTGGACACTGGGTTAGTGCTA | -0.621
TGTGCTTTCCTGATGGTTTTGTGCTAG | 0.477
TTAGGTATCCTTATCATTTAGTGCTAG | 0.718
TTAGGACTGGGGTTTCAGTTAGTGCTA | 1.68
GACGGTTTCGGGTACCGGGACGTGCTA | 9.54
AGTATGTTCACTATTTAAGGGTGCTAG | -0.133
GACGATTTCAGTTCCCAGACGTGCTAG | 0.72
GAAGGTTCCCTTTTCCTGACGTGCTAG | 0.824
TTAGGTTTCCTACGGCTTTAGTGCTAG | 0.285
TTAGGTTTCGTTTCCCTTTAGTGCTAG | 10.8
TCAAATTTTTTTCTAAGACTGTGCTAG | 0.472
AACGATCTCAGACTGGAGACGTGCTAG | -0.343
TTAAATCTCAGACTGGATTAGTGCTAG | -0.317

Block 3 — method: RNA Bind-n-Seq; form: RNA; medium: in vitro; tested at: 365 nM; reference: no-protein control; reading: higher = stronger binding
Target: RNA binding protein fox-1 homolog 2, RRM domain, GST-SBP tag (RBFOX2, Homo sapiens, UniProt O43251-10, residues 100-194)
Notes: natural RNA segment, single round, ends assumed
Constant ends, left off below: GGGAGUUCUACAGUCCGACGAUC … UGGAAUUCUCGGGUGCCAA
Residues (chain): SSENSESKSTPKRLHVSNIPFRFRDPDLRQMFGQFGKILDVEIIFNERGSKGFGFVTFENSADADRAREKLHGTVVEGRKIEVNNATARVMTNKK
Strand | RBNS enrichment (R)
CAUAACUAUUUUUAAUAUGGGUCAUUCUUAGCAUGAUUUGUAAAGGUCUCAGGCAAACAGUUGUUGAAGCUUGCUUCUGUGGCAUUUCUGAAUUGUGGCAGAGCUUAGAU | 1.12
UCAGACUUGAGUCUGUUUCCCCUUGAUAGCAUCAUGGUUCUGGCCUUUUCCACAUUCAAUGGAAGCUUCAUGGUUGUUCUGACAGUGAAAGCAGUCCUGGAGAUCCCAUU | 0.276
CUGUACCACUAGGGCAUCCAGAACAAGCCCCACCCUAACAGUGGGGGCAGGGAGGGUACAGCCAGGCUCACAGCACUGAGAGUCUCAACCAGCUAAGCUAAAUUGCAAGC | 0.346
ACCUCAGGUUCCAAAUUCAGUAAAUUUUGGAAACAGUACAGCUAUUUCUCAUCAAUUCUCUAUCAUGUUGAAGUCAAAUUUGGAUUUUCCACCAAAUUCUGAAUUUGUAG | 0.383
CCAUCUGUCUUCAUGAUUGUACUUGAGCAGUAUUAGCUGUAUGAGUUAAUUUUAUUCAGAUUGAAGAUGGAGGGCUGGGUUCUGCUCACUCAGUCUUUUUUUUUUUUUUU | 0.627
GAGGAGGCCGAGCAGAAUACACCCCAGAGUUAGGGUUUGCGACUCCGCCUCCCUGGGACCUGGAUUGGGUCAGAUGCCUGUCCUUGGAGGGGACAAGGUUGACUGCUUAG | 0.492
AGCAGAAACGGAAAUUGACCUCCCCGCCAUGUGUUUAAUAUUCCUCCUGCUUUUACUUUUGUCAUUUUCUUGAUAAUCGUAAGCCUUGAGAGUGUUUGUGAAAAAGUUUU | 1.27
UCUUAGCACAUCCUCUGUUCUCUACCUGUCAUGCUUCAAGAGUUCCAGCUGGCCUGCUGUGAAGCCAGUAGCUAUUUUAAAAGUGCUGGCUGCAGGAUUAAGCCAACCCU | 0.55
GAGUUCACUACCAUUUGUCAAGAAUCACCCUUUCCAAAUCCUCUGGGUUUUGACUUUUUGGCUUCCACUUCACCCAAAAUGUUAAAAUUUUUACUUAAUUCAUAGCCUUC | 0.594
UUUUGUUUUGGGGAAAAAAUUGGUAGGUGUCUAAUUACUGUUUACUUCAUUGUUAUAUUGCAGUAAAAGUUUUAAAACAACCAUUGCAUGUUUGCUUUUGAUGUAUCCCU | 34.5
AAAGUCCUCCUGGUUCCUGGGCCUGAGAAGGAGACCUAGGGCCAGAGGGCUGAGGGCCCUGGAGAGCCGGGGAGGGAGAAGAUGGGAAGUCCUGUCGUGUUGCCCACCAG | 0.269
GUGACAUAGACAUUUCUCAAAAGGGUCUGAUACAUCAAACUCCUAACAAGUAGGAGCAGCAACUAGCUAAAGAGUAGAAAGAAGCUUCCCUUAUUGUGGGUGAUGAGGCG | 0.434

Block 4 — method: RNA Bind-n-Seq; form: RNA; medium: in vitro; tested at: 200 nM; notes: whole 134-nt RNA, ends assumed; with: 150 mM LiCl; reference: input library; reading: higher = stronger binding; all molecules: 7-deaza-guanosine replaces G
Target: Ras GTPase-activating protein-binding protein 1, full length (G3BP1, Homo sapiens, UniProt Q13283)
Chain of UniProt Q13283 (whole entry, looked up): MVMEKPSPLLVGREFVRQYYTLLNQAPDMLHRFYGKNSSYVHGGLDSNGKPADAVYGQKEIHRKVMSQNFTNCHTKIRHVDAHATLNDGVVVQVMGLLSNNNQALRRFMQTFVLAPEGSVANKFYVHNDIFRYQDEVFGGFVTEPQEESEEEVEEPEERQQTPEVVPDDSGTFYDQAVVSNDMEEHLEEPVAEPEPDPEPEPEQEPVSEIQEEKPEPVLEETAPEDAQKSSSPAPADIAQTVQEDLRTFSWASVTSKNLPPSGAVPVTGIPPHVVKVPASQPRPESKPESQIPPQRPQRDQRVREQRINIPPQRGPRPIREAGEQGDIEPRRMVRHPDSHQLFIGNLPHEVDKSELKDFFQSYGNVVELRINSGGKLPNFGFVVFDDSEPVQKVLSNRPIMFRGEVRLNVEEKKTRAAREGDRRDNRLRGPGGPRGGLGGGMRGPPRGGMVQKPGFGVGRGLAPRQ
Constant ends, left off below: GGGAGUUCUACAGUCCGACGAUC … UGGAAUUCUCGGGUGUCAAGG
Strand | log2 enrichment
UGGCCCUGGUGGCAUGCGGGGAGGAAGAGGUGGCCUCAUGGAUCGUGGUGGUCCCGGUGGAAUGUUCAGAGGUGGCCGUGGUAGAGACAG | -0.248
CACAGACAACACGCACCCACACAGUCACAGAGGGAAGGGGUUGGGAUGGGGACAGGGUGCACAGCAGGGCGGGGUAGGACCCCAGCCCCU | -0.0447
UGGCCCUGGUGGCAUGCGGUGAGGAAGAGGUGGCCUCAUGGAUCGUGGUGGUCCCGGUGGAAUGUUCAGAGGUGGCCGUGGUGGAGACAG | 0.298
GACUCUGAAGAAGAAGCUAUGGAGACUACACCAGCCAAAGGAAAGAAAGCUGCAAAAGUUGUUCCUGUGAAAGCCAAGAACGUGGCUGAG | -0.943
CAAGUCCUGUGCUACACAUCGUAUGUACCGAAUCGGAAAGGUUUUUGGAAAAAGGAAAGUAUUAUGUUACGCCGUUCGGAUCUGCACUUC | -0.515
UUUGGUUAUGAACAGGAUUCGGAUUCACGUCUUGCCAACCAAUCGGGGGAGGAUCACUCCAGUGCCCAGGUCUCAGGAACCUCUGUCUUG | -0.105
UCAAGUCCUGUGCUACACAUCGUAUGUACCGAAUCGGGUUUUUGGGAGGGUGGGAAAGUAUUAUGUUACGCCGUUCGGAUCUGCACUUCC | -0.282
UCAUCCUUUUUAAAUUUUUUUUUUUUUUUUGAGACGGUCUCACUCUCACCCAGGCUGGAUUGCAGUGGUGUGAUCUCGACCAACUGCAAC | 0.915
UCCUGUGCUACACAUCGUAUGUACCGAAUCGGGGUUUGGGGUUUGGGGUUUUUUUGGGGAAAGUAUUAUGUUACGCCGUUCGGAUCUGCA | 0.161
AAGUCCUGUGCUACACAUCGUAUGUACCGAAUCGGUUUUUUUGGAAAGGAAAAAGGAAAGUAUUAUGUUACGCCGUUCGGAUCUGCACUU | -1.35
UGGGAGGUGGAUUUUGUUUAUUUUUUUAGCUCAUUUCCAGGGGUGGGAAUUUUUUUUUAAUAUGUGUCAUGUAUAAAGUUGUUUUUGAAA | 0.0521
